Experimental data pooled from the literature.
Every numbered part comes from another study and shows a few of its results, in no order. Substitutions count along the parent as printed.

Series 1
Target: PABPC1L2, full length, GST fusion (mouse, UniProt A0ABA7IW68)
Technique: RNAcompete
Molecule type: RNA
Medium: in vitro
Concentration: 20 nM
Setting: 7-mer, probes averaged, single round
Reference: mean of 7-mers
Reading: higher = stronger binding
Measurement: 7-mer Z-score
Construct (chain): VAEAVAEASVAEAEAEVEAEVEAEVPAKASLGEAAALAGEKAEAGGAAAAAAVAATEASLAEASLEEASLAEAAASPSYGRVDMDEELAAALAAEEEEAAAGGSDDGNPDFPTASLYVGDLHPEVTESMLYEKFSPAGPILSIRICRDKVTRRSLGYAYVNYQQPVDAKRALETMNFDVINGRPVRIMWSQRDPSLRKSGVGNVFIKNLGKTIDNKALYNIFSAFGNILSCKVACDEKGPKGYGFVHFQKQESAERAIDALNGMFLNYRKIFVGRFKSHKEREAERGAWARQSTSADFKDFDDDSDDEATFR
CACGGAA: 0.256
UCCCCUU: -0.463
CGUGACG: -0.0264
GUAGCAU: 0.0442
ACAGUGA: -0.115
AUGCUGC: -0.213
ACCAACU: -0.0808
CGAGGCU: -0.0989
AUAGUCA: -0.182
CCGACAA: 0.234
AGUUUAU: -0.28
UUAUAGA: -0.0826
GUGAGAA: -0.0699
CGGUGGC: -0.13
CCGAGCU: -0.235
ACCUGUA: -0.269
AGAUAUU: -0.344
UUCUAUG: -0.38
GAUAAGA: 0.229
ACAGUCA: -0.0192
GUGUCAA: -0.119
GCGCCCG: -0.342
CGAAAAA: 13.1
UGUGUCA: -0.374

Series 2
Target: CCND1, cyclin fold, Cln2 fusion (human)
Technique: yeast growth competition, sequencing
Medium: yeast
Setting: weak parent motif
Reference: not given
Reading: higher = stronger binding
Measurement: normalised enrichment score
Starting sequence: NPAT docking peptide (human); PCHRRVLCFDSTT
S11A: -0.473
C2A: -0.0635
T13A: -0.574
T12A: -0.00365
R5A L7A: -0.0886
F9A: -0.496
R5K F9L: -0.189
R5K: 0.206
R5A: -0.0305
C8A: -0.134

Series 3
Target: Histone acetyltransferase KAT6A, winged helix 1, GST fusion (KAT6A, Homo sapiens, UniProt Q92794, residues 1-85)
Technique: protein binding microarray
Molecule type: double-stranded DNA, one strand shown
Medium: in vitro
Concentration: not given
Setting: 8-mer, flanks averaged, mean of 2 arrays, mostly near background
Reference: not given
Reading: higher = stronger binding
Measurement: E-score
Target sequence (chain): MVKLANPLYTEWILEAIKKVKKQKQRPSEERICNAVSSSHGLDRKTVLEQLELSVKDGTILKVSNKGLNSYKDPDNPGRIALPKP
GGGGCCAA: -0.0315
ATAATGTA: 0.0111
TATATTAA: 0.0237
CAACAAAC: -0.0064
CTGTACGC: 0.203
GAGGACAC: -0.0831
ATTCTCAC: -0.164
AGAGCATA: -0.142
CGTGACAA: 0.00266
AGACAAAT: -0.21
AGGACCAC: -0.106
AATGGGCT: -0.219
AGCCGGTA: 0.255
GTGGATGA: -0.132
CAGGAGAC: -0.0764
GATCGTCA: -0.179
TCTACACA: -0.254
CATAGTCC: -0.0262
GGCCCTAC: 0.0411
CCGTGGCG: 0.318
ATAAGTTA: -0.224
GCTTCGCA: 0.126
CTTCACGC: 0.162

Series 4
Target: Ras GTPase-activating protein-binding protein 1, C-terminal RGG region (G3BP1, Homo sapiens, UniProt Q13283)
Sequence of UniProt Q13283 (whole entry, looked up): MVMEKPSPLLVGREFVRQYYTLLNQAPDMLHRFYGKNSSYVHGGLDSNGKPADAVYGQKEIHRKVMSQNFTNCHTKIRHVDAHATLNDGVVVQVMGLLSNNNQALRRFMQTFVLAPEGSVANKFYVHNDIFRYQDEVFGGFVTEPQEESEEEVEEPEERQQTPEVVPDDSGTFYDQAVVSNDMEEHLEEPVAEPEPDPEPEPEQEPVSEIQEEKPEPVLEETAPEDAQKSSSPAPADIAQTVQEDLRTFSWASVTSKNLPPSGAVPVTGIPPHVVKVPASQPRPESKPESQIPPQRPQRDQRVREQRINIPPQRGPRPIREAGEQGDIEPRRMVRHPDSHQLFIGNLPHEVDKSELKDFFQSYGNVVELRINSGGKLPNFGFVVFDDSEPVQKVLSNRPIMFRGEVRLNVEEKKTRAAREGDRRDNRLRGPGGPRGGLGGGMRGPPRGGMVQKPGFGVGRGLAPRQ
Technique: RNA Bind-n-Seq
Molecule type: RNA
Medium: in vitro
Concentration: 1 µM
Setting: whole 134-nt RNA, ends assumed
Together with: 150 mM KCl
Reference: input library
Reading: higher = stronger binding
Measurement: log2 enrichment
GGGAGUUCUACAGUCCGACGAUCCAAGUCCUGUGCUACACAUCGUAUGUACCGAAUCGGAAAAAAAGGAAAAAGGAGGAAAGUAUUAUGUUACGCCGUUCGGAUCUGCACUUCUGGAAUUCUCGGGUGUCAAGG: -1.72
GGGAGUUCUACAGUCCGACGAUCUUACACAAACCUGCAGGUGAAGACAGGCCAGCGGACCCUCAUCAACCCCAAGCCCUGUGGCCAGUUUUGCUGCUGUGAAGUGCUGGGCUGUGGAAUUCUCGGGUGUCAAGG: -0.943
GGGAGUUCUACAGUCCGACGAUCUAACUUUAGAGGAGGAUCUGAUGGAUAUGGCAGUGGACGUCGAUUUGGGGAUGGCUAUAAUGGGUAUGGAGGAGGACCUGGAGGUGGCAAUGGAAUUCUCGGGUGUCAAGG: -1.1
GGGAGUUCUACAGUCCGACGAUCCUCAAGUCCUGUGCUACACAUCGUAUGUACCGAAUCGGAAGGGGAAGGGAAGGAAAGUAUUAUGUUACGCCGUUCGGAUCUGCACUUCCAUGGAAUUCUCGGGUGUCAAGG: -1.06
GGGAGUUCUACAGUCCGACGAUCAGUCCUGUGCUACACAUCGUAUGUACCGAAUCGGGGAGGGGUUUGGGGAAAAAGGGGAAAGUAUUAUGUUACGCCGUUCGGAUCUGCACUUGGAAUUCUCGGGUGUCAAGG: 1.77
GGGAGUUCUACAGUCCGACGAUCACCAUGCAGGUGGGCAUCUUUGGGAAGUGGGGCAAGGGGGGAAAAGGGAGGGGGGUAACACUUUGGGAACAGGUGGUCCCAGGUCGUUUCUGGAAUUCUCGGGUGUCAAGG: -0.791
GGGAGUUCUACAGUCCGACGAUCAAGUCCUGUGCUACACAUCGUAUGUACCGAAUCGGUUUGGGGUUUGGGGUUUGGGGAAAGUAUUAUGUUACGCCGUUCGGAUCUGCACUUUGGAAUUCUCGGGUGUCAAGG: -0.473
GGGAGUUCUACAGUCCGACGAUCUGUGCUACACAUCGUAUGUACCGAAUCGGGGAAAAAAAGGGGAAAAAAAGGGGUUUUUGGGGAAAGUAUUAUGUUACGCCGUUCGGAUCUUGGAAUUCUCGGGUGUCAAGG: 0.816
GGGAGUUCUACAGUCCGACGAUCAGUCCUGUGCUACACAUCGUAUGUACCGAAUCGGAAAAAGGGAAAAAGGGGAAAAAGGAAAGUAUUAUGUUACGCCGUUCGGAUCUGCACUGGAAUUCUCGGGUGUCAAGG: -1.56
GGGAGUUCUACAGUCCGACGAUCUGGGAGGUGGAUAUUGUUUAUUUUUUUAGCUCAUUUCCAGGGGUGGGAAUUUUUUUUUAAUAUGUGUCAUGAAUAAAGUUGUUUUUGAAAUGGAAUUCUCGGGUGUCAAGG: 3.83
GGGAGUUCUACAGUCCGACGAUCCUGUGCUACACAUCGUAUGUACCGAAUCGGGGUUUUUUUGGGGAAAAAAAGGGGAAAGGGGAAAGUAUUAUGUUACGCCGUUCGGAUCUGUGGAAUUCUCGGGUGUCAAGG: -0.334
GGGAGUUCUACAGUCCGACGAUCUAACUUUAGAGGAGAAUCUGAUGGAUAUGGCAGUGGACGUGGAUUUGGGGAUGGCUAUAAUGGGUAUGGAGGAGGACCUGGAGGUGGCAAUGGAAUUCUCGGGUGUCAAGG: -1.51
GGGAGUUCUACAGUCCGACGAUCACCAUGCAGGUGGGCAUCUUUGGGAAGUGGGGCAAGCGGGGGAUAGGGAGGGGGGUAACACUUUGGGAACAGGUGGUCCCAGGUCGUUUCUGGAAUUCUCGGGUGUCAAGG: -0.699
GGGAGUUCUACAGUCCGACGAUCUGGGAGGUGGAUUUUGUUUAUUUUUUUAGCUCAUUUCCAGGGGUGGGAAUUUUUUUUUAAUAUGUGUCGUGAAUAAAGUUGUUUUUGAAAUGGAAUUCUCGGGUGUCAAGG: 3.84

Series 5
Target: RING finger protein unkempt homolog, zinc fingers 1-6, GST-SBP tag (UNK, Homo sapiens, UniProt Q9C0B0, residues 30-357)
Technique: RNA Bind-n-Seq
Molecule type: RNA
Medium: in vitro
Concentration: not given
Setting: RNA with constant flanks, human and mouse sites, ends assumed
Reference: input RNA pool
Reading: higher = stronger binding
Measurement: bound/input enrichment
Residues (chain): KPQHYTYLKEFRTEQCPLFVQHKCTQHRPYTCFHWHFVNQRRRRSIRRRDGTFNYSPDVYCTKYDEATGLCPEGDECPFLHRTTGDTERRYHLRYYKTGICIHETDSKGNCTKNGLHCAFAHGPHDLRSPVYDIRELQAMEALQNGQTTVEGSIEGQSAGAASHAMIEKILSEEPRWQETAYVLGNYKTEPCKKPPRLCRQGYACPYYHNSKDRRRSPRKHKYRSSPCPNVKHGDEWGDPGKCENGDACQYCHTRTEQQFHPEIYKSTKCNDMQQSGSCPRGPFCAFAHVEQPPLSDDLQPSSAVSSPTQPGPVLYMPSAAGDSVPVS
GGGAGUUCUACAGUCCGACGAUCAUCUCCCGGUCCCCCGCCCGCGGCAGACAUGGCGGUGGACUCGUCUAUGGAGCUGCUAUUUUUAGAUACUUUUAAACAUCCGAGCGCUGAGCAAAGUUCUCAUAUAGAUGUGGUUCGUUUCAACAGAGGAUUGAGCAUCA: 7.55 ratio
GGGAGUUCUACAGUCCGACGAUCGACCAAACCCAGAACUUUUUUUUUUUUUUUUUUGGUUUUUCAAGACAAGAUUUCUCUGUGUAGCUCUGGCUGUCCUGGAACCCACUGUGUAUAUGACUAGGCUGAACUCCAACUCAGAGACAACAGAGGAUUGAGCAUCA: 1.95 ratio
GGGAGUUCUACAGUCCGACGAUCUCUAAGGAAGACAAAAUGAAAGAAAGUGAAACAUUUUCCGAUUCAUCUCCCAUUGAGAUAAUAGAUGAGUUUCCCACAUUUGUCAGUGCUAAAGAUGAUUCUCCUAAGGAGUACACUGACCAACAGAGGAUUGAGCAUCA: 0.0779 ratio
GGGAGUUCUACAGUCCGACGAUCUCUUCUAAGAAUGGAUUUGGAUUCCGAGAUAGUGAUCUGGAUAUUUGUAUGACUCUGGAAGGCCAUGAAAAUGCAGAGAAAUUAAACUGUAAAGAAAUAAUUGAAAAUUUGGCGAAAAUUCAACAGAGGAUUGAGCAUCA: 0.348 ratio
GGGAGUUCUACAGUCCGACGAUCUUUGGAGGUCAAGACAUCUUUAUGACAGAGGAACAGAAAAAAUAUUACAAUGCAAUGAAGAAACUUGGAUCCAAGAAACCUCAGAAACCCAUACCUCGCCCAGCAAACAAAUUCCAAGGACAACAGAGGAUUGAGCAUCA: 0.309 ratio
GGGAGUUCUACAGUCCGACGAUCGAGUCUAACAACAUUUUCAUUUCCGAAAGGCCAACAGAUGUUCUCCAGACAGUCAAGUUAUUAGAUCUUUCCUCUAAUCAAUUAAUUGAUGAAAAUCAGCUGUAUCUGAUAGCCCACCUGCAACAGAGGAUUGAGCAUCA: 0.294 ratio
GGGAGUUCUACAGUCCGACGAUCGAACCUGCUGAUGCAUCAGUAGUCCUGUGUAAAGAGCCCACCGCCUUUGAGGUUCCUCAGCUUAGUGUUUGUGGAGGUUCUGAAGACGCUGACAUAUUAUCCAGUUCAGGUCAUGACACACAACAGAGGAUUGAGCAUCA: 0.234 ratio
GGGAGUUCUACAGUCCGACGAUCUGGUCUCCCCAGGCAAGAAGGUAUCCUCUUCCCAAGGUGUACCCACUGAAUGUUGUUACUACAUAUUGAGAGUCAUUUUAUGCAUAUGCAUUCUACCUUUCCUGCUUUAUGAGUAUUUUUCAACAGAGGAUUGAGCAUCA: 0.31 ratio
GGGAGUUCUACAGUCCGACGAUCUGUGGAAUCAAGCACCUUCAUUCUGCUGGAAUUAUUCAUCGGGACUUAAAGCCCAGUAAUAUAGUAGUAAAAUCUGAUUGCACUUUGAAGAUUCUUGACUUCGGUCUGGCCAGGACUGCACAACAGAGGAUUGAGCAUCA: 0.205 ratio
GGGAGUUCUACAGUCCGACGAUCUAUGCUUACCUUCUAAACGAUCAUGGCUAUUUGAUAUCUAAAUAUUUAAAACUUAACCAUGUCGUCACUGUGCACUGUGAAUGGACUUUGUAUUAUUUUUAAACCUUACACUCGAUGUAACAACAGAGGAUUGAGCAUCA: 0.118 ratio
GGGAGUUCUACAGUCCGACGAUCACUGUUGUUAAGCACUGUGUUCCAGACCGUGUCUGACUUAGUGUAACCUAGGAGAUUUUAUAGUUUUAUUUUAAUGAAACCCUGAUUGACGCACAGCAGUGGGGAGAACAGCGUCUUUUACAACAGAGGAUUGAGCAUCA: 16 ratio
